Measured values collected from several papers.
Parts stem from different laboratories: compare values within a part only.

Set 1
Target: RNA binding protein fox-1 homolog 2, RRM domain, GST-SBP tag (RBFOX2, Homo sapiens, UniProt O43251-10, residues 100-194)
Technique: RNA Bind-n-Seq
Form: RNA
Matrix: in vitro
Tested at: 365 nM
Setting: natural RNA segment, single round, ends assumed
Reference: no-protein control
Reading: higher = stronger binding
Target sequence (chain): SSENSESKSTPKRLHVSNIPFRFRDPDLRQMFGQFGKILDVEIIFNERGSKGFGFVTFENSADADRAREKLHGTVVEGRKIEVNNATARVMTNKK
| Strand | RBNS enrichment (R) |
| --- | --- |
| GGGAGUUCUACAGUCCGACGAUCCCAGCGUGUGUAAAACAGAACAGUAACUCUAUGUGACCCCAGAUAACAUUUUGUAACAUUGUGCUUCCUUGUAGUUUGUAAUGUGAGUUCAAUCAGUAUUUAUGUUGAAAUGGAAUUCUCGGGUGCCAA | 2.05 |
| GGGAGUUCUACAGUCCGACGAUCCCCCGGACCAAGGGGAUACUGUAAUCAGGUUAUGUACACCAACCUCUGCAUCAGUUGCUUCUAUAGAGCAUCAGCCCUCAUGUUUCAUUGUCUUAAUGUCGGGGAGCAGCUGGAAUUCUCGGGUGCCAA | 0.338 |
| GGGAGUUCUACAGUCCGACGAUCCUAUGGUGUGGAGUGGUGGCAGAAGACUCUGAAAGGGAAGAAAUUGGCAAAGCUGCAGCUUUUUCCUGCAUUUGGUCCCAUAAUCUUAAUAGAAACAAUUUCCUAUUACAUGGAAUUCUCGGGUGCCAA | 0.474 |
| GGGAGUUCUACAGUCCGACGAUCUCAACGGGCUGGGCUGGGUAUGUGCCUACCGAUGACAAUGUGUAAAUAAAUGCGUGUUCACACCCACGCUGGCUCCGUUACUCUCCUGAGCUGGGGGUGGGGGGAUCGGGUGGAAUUCUCGGGUGCCAA | 1.08 |
| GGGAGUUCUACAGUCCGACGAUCGCUUCCUUGGCUUGGGGGAGGGGGCAUCCGUCCCCCUCUGUGUGAACACAGCUCACCGCGUCACCUGAUGGAUGGCCCUACUGUGAAGGAAGAAAAAAGUUGGCAUUUCUUGGAAUUCUCGGGUGCCAA | 0.313 |
| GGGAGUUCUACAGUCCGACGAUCGGUUAAUGGUAACUUGUUGUUCUCCUGAUCUAACUGAGUACCACCUUUGGUGUUAAGUGUCAUUGUUUAGUUUACCCUCUGUUCUCUAUGUUGUCCUAACAAGCCAACCCUGGAAUUCUCGGGUGCCAA | 0.303 |
| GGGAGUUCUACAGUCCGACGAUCCCAACUACCUUCACAGCACCCAGUGAUCAAGGUGAUGACGGUUGAGAACCUGAAAGUGCAUACUGAGUUGAGUGUUCAGGCUGCUGUCCUUGGUCUCUCUGCAGUUCUGGUGGAAUUCUCGGGUGCCAA | 0.756 |
| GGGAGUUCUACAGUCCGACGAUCCAUGAUUCCUUGUAUUGCAUUUCUUUGCACAUAUUAUGGGCUUGUGACCCUAAACUUGCAGGCAAGAUUAGCUGCUUUAGUAAGUAGUAUUUUGUGGUCUUUUUUUUGUUUGGAAUUCUCGGGUGCCAA | 0.745 |
| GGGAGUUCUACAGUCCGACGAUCGGGGGAGAAGCUGAAAGAUAAGGACUCAACCCAAGUCAUUUGUCUUCUUUCCUGCUAUGCUGUGAGCUACUGAGCUUUACAGCCAUGAAAACUAUUGUAGGCUCCCUCGCUGGAAUUCUCGGGUGCCAA | 0.222 |
| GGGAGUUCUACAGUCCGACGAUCCUGUUGAGUAUGGAAUGUCCCAGUUUAAUAUAAAACAUACAGUUUAUUCCACACAGCAGUUUGACUUUGUAAAAGUUUAGCAAAAUAACUGAUUGUUUUGGAUAACUCAAUGGAAUUCUCGGGUGCCAA | 0.428 |
| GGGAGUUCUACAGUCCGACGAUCAUUACCUCACUCAUUCACAUGUGAGCGACACGCAGACAUCCGCGAGGGCCAGCGUCACCAGACCAGCUGCGGGACAAACCACUCAGACUGCUUGUAGGACAAAUACUUCUUGGAAUUCUCGGGUGCCAA | 0.368 |
| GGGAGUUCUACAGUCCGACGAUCCUUAGAGUAGGAUUGACCUCAUGGGCUGCUCUGCCCACUUGGUCAGGCUCUCCUGAGCAGGACUGCUAAAGAGCUUGCCUCCUCAAAGCCUGGUCUCUGAGGUGCUUUCUUGGAAUUCUCGGGUGCCAA | 0.245 |

Set 2
Target: Prothrombin, mature alpha-thrombin (F2, Homo sapiens, UniProt P00734)
Technique: aptamer microarray, sandwich
Form: DNA with 2'F-ANA
Matrix: in vitro
Tested at: 200 nM
Setting: whole 15-mer aptamer, many near background
Added: Cy3 exosite-II aptamer, 400 nM
Reading: higher = stronger binding
Strand: GGTTGGTGTGGTTGG
| Modification | mean fluorescence intensity |
| --- | --- |
| 2'F-ANA at 2 4 6 7 9 10 11 12 13 14 15 | 62.5 a.u. |
| 2'F-ANA at 1 2 4 5 6 7 9 11 12 | 86.3 a.u. |
| 2'F-ANA at 2 7 8 9 11 15 | 445 a.u. |
| 2'F-ANA at 4 6 7 8 9 15 | 264 a.u. |
| 2'F-ANA at 3 4 5 6 7 8 9 10 12 | 87.5 a.u. |
| 2'F-ANA at 4 5 13 14 | 43.4 a.u. |
| 2'F-ANA at 4 7 8 10 11 13 | 73.9 a.u. |
| 2'F-ANA at 3 4 7 8 10 13 15 | 295 a.u. |
| 2'F-ANA at 2 3 5 6 7 8 9 10 12 14 | 61.4 a.u. |
| 2'F-ANA at 4 6 7 10 11 13 14 15 | 59.2 a.u. |
| 2'F-ANA at 1 8 10 12 13 15 | 73.5 a.u. |
| 2'F-ANA at 1 2 3 6 7 9 11 12 13 | 224 a.u. |
| 2'F-ANA at 2 5 7 8 10 11 12 13 14 15 | 54.3 a.u. |
| 2'F-ANA at 1 2 4 13 15 | 93 a.u. |
| 2'F-ANA at 1 3 4 5 6 7 8 9 10 11 | 50.3 a.u. |
| 2'F-ANA at 2 6 8 9 10 11 12 13 14 | 80.6 a.u. |
| 2'F-ANA at 2 4 6 7 10 13 15 | 72.5 a.u. |

Set 3
Target: Histone acetyltransferase KAT6A, winged helix 1, GST fusion (KAT6A, Homo sapiens, UniProt Q92794, residues 1-85)
Technique: protein binding microarray
Form: double-stranded DNA, one strand shown
Matrix: in vitro
Tested at: not given
Setting: 8-mer, flanks averaged, mean of 2 arrays, mostly near background
Reference: not given
Reading: higher = stronger binding
Construct (chain): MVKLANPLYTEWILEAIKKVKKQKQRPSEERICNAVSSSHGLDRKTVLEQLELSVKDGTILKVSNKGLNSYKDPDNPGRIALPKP
| Strand | E-score |
| --- | --- |
| AGACCACT | -0.261 |
| CGATGAGC | 0.132 |
| AATACAAC | 0.0725 |
| CTCGGACC | 0.11 |
| TAATCCAA | -0.199 |
| GTTCATAA | -0.147 |
| CGACGGCG | 0.472 |
| AAGGTGGC | -0.18 |
| CTTATTTC | -0.22 |
| AAATGGAA | -0.194 |
| CGAGAGCA | -0.0831 |
| AAAAGTAA | -0.0791 |
| CCTGGTTC | -0.16 |
| AACGCCCG | 0.312 |
| ATAGTTGC | -0.111 |
| GGTTCGAA | -0.11 |
| CCTGACAC | -0.196 |
| AAACCCCT | -0.0919 |
| ATGGCGAG | -0.162 |
| AAAGACCA | -0.146 |
| ACTTAGGA | -0.213 |
| ATATGGAT | -0.16 |
| GAGACAGC | -0.0196 |
| GTGATCGA | -0.16 |
| GAAGACGC | 0.0975 |

Set 4
Target: Phosphate system positive regulatory protein PHO4, full length, GST-tagged (PHO4, Saccharomyces cerevisiae, UniProt P07270, residues 1-312)
Technique: competition protein-binding microarray
Form: double-stranded DNA, one strand shown
Matrix: in vitro
Tested at: 2 µM
Setting: whole 60-bp probe, lowest competitor level
Added: Cbf1 competitor, 0.05 µM
Reading: higher = stronger binding
Construct (chain): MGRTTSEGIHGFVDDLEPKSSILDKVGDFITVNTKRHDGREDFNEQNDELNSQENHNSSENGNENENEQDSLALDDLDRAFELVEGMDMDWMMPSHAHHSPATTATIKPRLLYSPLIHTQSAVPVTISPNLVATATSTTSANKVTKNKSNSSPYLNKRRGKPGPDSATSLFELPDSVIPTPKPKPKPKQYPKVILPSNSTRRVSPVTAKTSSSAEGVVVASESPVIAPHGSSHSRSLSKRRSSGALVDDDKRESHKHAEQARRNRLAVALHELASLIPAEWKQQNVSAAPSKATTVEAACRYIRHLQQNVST
| Strand | fluorescence intensity [a.u.] |
| --- | --- |
| CTAACGAAGGTTTGTCGAGTGGGTGACAAGCCAAGTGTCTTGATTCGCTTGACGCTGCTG | 3300 |
| CGTCCTAGTGATTGTCACCGGACTTCCATGAGGAAGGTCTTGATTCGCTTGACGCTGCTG | 4350 |
| CTAACGAAGGTTTGAGTCGTGGGTGACAAGCCAAGTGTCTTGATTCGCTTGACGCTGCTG | 6320 |
| CGTCCTAGTGATTGTGGGGTGGGTGCCATGAGGAAGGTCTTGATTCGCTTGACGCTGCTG | 6670 |
| CTAACGAAGGTTTGGCAGGTGGGTGACAAGCCAAGTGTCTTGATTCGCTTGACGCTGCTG | 7250 |
| CATACCCAACCTTATCACGTGTTTTAAGATATTTGTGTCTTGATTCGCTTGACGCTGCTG | 18500 |
| TATGTTTGCTACTGTCACACTGCCTTTCAATACGCTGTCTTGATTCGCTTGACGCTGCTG | 4070 |
| GAGAGAATGAACCATCACGTGTGAACCCAAAAGGCCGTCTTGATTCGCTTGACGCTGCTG | 15200 |
| CTAACGAAGGTTTTTCACGTGGTGTACAAGCCAAGTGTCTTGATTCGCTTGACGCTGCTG | 13900 |
| CATACCCAACCTTGCCAAGTGGGTGAAGATATTTGTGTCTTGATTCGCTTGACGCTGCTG | 4220 |
| CGTCCTAGTGATTGCGAAGTGGGTGCCATGAGGAAGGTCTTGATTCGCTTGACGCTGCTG | 6420 |
| TGCGCAACAACTTGATGTGTGGGTGTATGTCTAGAAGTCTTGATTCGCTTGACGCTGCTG | 6370 |
| TTGCTGGTTACCCTGCATGTGATATTTGATTACATAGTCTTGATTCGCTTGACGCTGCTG | 7980 |
| ATGGGTCTGTTTACTCATGTGACGCTCTATGCGCTGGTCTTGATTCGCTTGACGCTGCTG | 5910 |
| CTTCTGTAAATTTGTCACGGGACTTGACGCGCCCCGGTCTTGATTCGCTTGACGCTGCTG | 5570 |
| ACTGGTTACGATGATAACGAGCACTATGTTTCCCCCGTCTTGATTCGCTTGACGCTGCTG | 5370 |
| TTAATCAATGATTTACCCGTGGGACCCAAGTCCAGTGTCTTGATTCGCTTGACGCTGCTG | 7600 |
| TCCGATGGAAACGAGCATGTGGCCGATAGATCTAAAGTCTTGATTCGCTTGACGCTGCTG | 10600 |
| CATACCCAACCTTTTCACGTGCCGTAAGATATTTGTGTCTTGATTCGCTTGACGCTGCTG | 15800 |
| AAACAAATGGCAGTCCATGTGAAAAGCTGAGACAAAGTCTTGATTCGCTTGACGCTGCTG | 4580 |
| CGGGGTTAAGTTTGTTACGTGGGTGGCTTGCAGCAGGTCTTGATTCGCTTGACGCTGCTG | 6400 |
| CATACCCAACCTTGGCTGGTGGGTGAAGATATTTGTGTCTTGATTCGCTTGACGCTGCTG | 3580 |
| CATACCCAACCTTGTCACCTGACTTAAGATATTTGTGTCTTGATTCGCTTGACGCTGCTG | 4050 |
| GTTATTTAAAGCTTCCACGTGCAAAATTTTAGGCAAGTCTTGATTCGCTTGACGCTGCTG | 17300 |
| GTCATTACGGGGGTTCACGTGCGATGGGAAGCTTTTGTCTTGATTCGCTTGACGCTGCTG | 15600 |

For quick reference, copied from above (set 3):
| Strand | E-score |
| --- | --- |
| AAATGGAA | -0.194 |
| CGAGAGCA | -0.0831 |
| AAAAGTAA | -0.0791 |
| CCTGGTTC | -0.16 |
| AACGCCCG | 0.312 |
| ATAGTTGC | -0.111 |
| GGTTCGAA | -0.11 |
| CCTGACAC | -0.196 |
| AAACCCCT | -0.0919 |
| ATGGCGAG | -0.162 |
| AAAGACCA | -0.146 |
| ACTTAGGA | -0.213 |
| ATATGGAT | -0.16 |
